Results collected from several papers.
A part holds a random share of what one study measured.
Chain of UniProt P23458 (whole entry, looked up): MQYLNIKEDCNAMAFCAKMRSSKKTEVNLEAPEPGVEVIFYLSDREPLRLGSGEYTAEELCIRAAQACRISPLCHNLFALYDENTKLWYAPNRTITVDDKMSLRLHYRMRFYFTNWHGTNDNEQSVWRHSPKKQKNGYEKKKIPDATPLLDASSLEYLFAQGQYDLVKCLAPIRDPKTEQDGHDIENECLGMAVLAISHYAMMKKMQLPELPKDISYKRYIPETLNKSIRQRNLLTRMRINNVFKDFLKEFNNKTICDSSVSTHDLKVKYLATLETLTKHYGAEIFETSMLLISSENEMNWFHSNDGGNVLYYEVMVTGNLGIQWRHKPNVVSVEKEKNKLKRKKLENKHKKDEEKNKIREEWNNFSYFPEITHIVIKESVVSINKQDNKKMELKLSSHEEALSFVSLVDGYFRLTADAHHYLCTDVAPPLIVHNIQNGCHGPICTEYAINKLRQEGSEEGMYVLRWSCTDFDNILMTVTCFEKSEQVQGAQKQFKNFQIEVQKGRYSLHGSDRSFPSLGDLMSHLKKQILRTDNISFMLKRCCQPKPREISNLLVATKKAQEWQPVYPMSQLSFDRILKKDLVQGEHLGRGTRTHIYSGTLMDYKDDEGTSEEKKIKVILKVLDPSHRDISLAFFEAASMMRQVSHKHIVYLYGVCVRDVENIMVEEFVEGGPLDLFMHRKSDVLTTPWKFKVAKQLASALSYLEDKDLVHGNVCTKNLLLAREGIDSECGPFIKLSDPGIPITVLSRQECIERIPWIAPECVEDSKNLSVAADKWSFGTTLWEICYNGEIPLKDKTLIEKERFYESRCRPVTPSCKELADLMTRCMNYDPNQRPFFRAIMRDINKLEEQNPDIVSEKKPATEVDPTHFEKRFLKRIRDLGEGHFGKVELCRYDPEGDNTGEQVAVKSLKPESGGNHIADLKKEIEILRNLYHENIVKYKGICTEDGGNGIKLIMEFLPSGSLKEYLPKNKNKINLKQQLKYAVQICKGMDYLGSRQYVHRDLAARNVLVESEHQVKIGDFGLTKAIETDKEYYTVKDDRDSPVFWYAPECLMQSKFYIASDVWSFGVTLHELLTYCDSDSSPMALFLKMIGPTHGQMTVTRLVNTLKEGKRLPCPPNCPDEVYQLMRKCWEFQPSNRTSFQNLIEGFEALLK
Chain of UniProt Q8TDR2 (whole entry, looked up): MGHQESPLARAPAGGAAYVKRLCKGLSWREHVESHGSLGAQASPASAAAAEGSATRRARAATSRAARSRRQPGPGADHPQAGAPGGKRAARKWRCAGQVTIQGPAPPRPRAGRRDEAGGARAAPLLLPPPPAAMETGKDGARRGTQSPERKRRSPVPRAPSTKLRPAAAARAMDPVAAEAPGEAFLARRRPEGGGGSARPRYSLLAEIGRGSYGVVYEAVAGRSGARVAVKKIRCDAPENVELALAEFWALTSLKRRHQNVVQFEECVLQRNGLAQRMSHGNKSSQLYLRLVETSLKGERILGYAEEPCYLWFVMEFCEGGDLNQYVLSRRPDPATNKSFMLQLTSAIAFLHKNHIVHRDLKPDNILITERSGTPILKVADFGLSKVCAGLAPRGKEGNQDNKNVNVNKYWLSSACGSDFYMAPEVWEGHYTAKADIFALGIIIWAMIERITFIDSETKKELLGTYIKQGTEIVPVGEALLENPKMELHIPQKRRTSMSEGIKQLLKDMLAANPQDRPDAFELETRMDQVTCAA
Chain of UniProt P21127 (whole entry, looked up): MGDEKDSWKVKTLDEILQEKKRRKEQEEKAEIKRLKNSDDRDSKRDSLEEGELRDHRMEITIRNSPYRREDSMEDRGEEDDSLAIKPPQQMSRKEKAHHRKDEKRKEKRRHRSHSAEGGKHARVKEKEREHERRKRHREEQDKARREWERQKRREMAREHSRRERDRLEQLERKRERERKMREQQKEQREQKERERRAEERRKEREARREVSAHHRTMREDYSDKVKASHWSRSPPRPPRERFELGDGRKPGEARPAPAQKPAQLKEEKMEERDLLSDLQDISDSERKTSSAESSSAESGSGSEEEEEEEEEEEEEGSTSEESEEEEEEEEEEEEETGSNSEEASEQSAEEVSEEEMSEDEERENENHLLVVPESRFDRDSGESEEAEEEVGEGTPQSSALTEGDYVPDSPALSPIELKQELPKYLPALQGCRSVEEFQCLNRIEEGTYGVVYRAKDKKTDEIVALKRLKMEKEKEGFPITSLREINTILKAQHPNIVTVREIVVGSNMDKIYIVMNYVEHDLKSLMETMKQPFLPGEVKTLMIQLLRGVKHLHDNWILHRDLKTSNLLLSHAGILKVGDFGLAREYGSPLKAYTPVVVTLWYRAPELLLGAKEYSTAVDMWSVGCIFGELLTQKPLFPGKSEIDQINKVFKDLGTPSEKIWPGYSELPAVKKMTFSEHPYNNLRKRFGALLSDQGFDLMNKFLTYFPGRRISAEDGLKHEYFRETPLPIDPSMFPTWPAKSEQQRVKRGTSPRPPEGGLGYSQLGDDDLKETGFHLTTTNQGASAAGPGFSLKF
Chain of UniProt P07332 (whole entry, looked up): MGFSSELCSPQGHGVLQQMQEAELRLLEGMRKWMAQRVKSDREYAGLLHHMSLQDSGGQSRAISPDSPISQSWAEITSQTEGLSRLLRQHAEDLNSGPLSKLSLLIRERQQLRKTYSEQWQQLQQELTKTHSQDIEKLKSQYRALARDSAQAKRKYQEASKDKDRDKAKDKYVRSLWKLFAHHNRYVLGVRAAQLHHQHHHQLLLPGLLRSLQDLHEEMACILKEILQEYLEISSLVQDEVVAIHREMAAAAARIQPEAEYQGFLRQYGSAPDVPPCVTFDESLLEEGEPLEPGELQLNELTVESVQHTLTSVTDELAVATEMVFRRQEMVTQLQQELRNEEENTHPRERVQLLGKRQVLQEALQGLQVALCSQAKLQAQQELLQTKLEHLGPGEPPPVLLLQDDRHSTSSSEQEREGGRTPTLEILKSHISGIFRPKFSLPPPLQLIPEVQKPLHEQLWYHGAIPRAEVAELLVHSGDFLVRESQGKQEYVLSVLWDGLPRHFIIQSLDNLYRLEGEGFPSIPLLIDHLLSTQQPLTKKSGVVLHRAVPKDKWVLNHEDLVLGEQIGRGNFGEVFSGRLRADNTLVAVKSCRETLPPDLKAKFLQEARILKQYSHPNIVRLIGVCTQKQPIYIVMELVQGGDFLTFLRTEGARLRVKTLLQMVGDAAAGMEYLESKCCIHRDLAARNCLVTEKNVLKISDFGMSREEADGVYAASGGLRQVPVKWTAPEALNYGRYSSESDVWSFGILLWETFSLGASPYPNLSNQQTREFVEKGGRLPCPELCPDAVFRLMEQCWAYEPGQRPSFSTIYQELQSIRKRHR
Chain of UniProt Q99755 (whole entry, looked up): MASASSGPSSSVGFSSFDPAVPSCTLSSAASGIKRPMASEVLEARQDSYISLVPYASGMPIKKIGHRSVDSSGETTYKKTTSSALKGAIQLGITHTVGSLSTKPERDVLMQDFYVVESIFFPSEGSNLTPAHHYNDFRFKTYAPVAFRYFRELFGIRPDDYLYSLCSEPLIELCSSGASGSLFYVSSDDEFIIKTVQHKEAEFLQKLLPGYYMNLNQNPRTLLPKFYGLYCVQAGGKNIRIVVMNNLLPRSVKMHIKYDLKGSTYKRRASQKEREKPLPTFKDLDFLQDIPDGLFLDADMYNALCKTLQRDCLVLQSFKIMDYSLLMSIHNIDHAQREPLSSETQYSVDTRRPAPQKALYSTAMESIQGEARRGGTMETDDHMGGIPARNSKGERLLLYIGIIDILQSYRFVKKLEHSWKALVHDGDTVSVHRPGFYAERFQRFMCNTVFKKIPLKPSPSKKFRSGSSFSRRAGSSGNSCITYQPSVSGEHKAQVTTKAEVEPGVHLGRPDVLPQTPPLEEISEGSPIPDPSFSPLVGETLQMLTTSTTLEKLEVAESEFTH
Chain of UniProt P54753 (whole entry, looked up): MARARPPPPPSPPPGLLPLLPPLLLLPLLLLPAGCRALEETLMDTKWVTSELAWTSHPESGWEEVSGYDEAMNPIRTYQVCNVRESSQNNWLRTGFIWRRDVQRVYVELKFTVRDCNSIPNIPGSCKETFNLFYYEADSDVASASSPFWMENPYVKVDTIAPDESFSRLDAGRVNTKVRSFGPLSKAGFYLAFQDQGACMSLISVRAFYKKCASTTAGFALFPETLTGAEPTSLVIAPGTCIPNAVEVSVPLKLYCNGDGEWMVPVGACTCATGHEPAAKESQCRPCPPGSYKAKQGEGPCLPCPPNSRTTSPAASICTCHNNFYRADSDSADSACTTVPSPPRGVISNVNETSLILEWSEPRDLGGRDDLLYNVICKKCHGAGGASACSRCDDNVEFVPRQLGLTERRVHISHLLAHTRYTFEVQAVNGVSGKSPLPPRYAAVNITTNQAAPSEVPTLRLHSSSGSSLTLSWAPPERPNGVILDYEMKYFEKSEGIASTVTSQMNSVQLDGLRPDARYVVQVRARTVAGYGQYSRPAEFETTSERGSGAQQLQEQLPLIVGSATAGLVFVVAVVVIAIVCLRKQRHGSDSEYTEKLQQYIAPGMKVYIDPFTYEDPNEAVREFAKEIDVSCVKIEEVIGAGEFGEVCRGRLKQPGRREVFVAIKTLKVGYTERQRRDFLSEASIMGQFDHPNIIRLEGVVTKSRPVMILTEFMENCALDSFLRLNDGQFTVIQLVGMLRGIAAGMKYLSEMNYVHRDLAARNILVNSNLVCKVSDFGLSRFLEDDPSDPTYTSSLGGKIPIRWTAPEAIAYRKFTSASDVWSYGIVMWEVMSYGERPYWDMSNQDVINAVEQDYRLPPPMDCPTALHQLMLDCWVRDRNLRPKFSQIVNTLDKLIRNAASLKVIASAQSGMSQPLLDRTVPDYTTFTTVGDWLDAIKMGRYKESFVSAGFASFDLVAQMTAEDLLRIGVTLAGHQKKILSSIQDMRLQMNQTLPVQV

Sample 1
Compound: CC(=O)N1CCC(c2ccc(C(=O)NC3=NCCN3)cc2C(F)(F)F)CC1
Concentration: 1 µM
target | test | remaining binding
MATK (Homo sapiens, UniProt P42679) | cell-free assay, competition with immobilised ligand | 100%
PIP5K1A (Homo sapiens, UniProt Q99755) | cell-free assay, competition with immobilised ligand | 100%
PI4KB (Homo sapiens, UniProt Q9UBF8) | cell-free assay, competition with immobilised ligand | 91%
STK35 (Homo sapiens, UniProt Q8TDR2) | cell-free assay, competition with immobilised ligand | 100%
RET (Homo sapiens, UniProt P07949, V804M) | cell-free assay, competition with immobilised ligand | 100%
STK24 (Homo sapiens, UniProt Q9Y6E0) | cell-free assay, competition with immobilised ligand | 97%
PIK3CA (Homo sapiens, UniProt P42336, E545A) | cell-free assay, competition with immobilised ligand | 100%
PIM1 (Homo sapiens, UniProt P11309) | cell-free assay, competition with immobilised ligand | 100%
BUB1 (Homo sapiens, UniProt O43683) | cell-free assay, competition with immobilised ligand | 100%
PRKACB (Homo sapiens, UniProt P22694) | cell-free assay, competition with immobilised ligand | 100%
Tyrosine-protein kinase ABL1, non-phosphorylated (ABL1, Homo sapiens, UniProt P00519, T315I) | cell-free assay, competition with immobilised ligand | 87%
CSNK2A1 (Homo sapiens, UniProt P68400) | cell-free assay, competition with immobilised ligand | 86%
RIPK2 (Homo sapiens, UniProt O43353) | cell-free assay, competition with immobilised ligand | 100%
PIK3CB (Homo sapiens, UniProt P42338) | cell-free assay, competition with immobilised ligand | 100%
PTK2B (Homo sapiens, UniProt Q14289) | cell-free assay, competition with immobilised ligand | 100%
STK17B (Homo sapiens, UniProt O94768) | cell-free assay, competition with immobilised ligand | 100%
PKMYT1 (Homo sapiens, UniProt Q99640) | cell-free assay, competition with immobilised ligand | 100%
FLT4 (Homo sapiens, UniProt P35916) | cell-free assay, competition with immobilised ligand | 98%
Tyrosine-protein kinase JAK1, JH2 (JAK1, Homo sapiens, UniProt P23458) | cell-free assay, competition with immobilised ligand | 100%
TYRO3 (Homo sapiens, UniProt Q06418) | cell-free assay, competition with immobilised ligand | 89%
EPHB3 (Homo sapiens, UniProt P54753) | cell-free assay, competition with immobilised ligand | 93%
MAPK6 (Homo sapiens, UniProt Q16659) | cell-free assay, competition with immobilised ligand | 100%
CDK11B (Homo sapiens, UniProt P21127) | cell-free assay, competition with immobilised ligand | 92%
Tyrosine-protein kinase ABL1, phosphorylated (ABL1, Homo sapiens, UniProt P00519, F317I) | binding | 94%
GSK3A (Homo sapiens, UniProt P49840) | cell-free assay, competition with immobilised ligand | 78%

Sample 2
Cell line: Huh-7
Concentration: 10 µM
Time: 24 h
Structure (SMILES) | viability
NS(=O)(=O)c1cc2c(cc1Cl)NC(C(Cl)Cl)NS2(=O)=O (stereo not shown) | 102%
[H]/N=C(/N)N/C(=N/[H])NCCc1ccccc1 | 86.2%
CN(C)[C@@H]1C(O)=C(C(N)=O)C(=O)[C@@]2(O)C(O)=C3C(=O)c4c(O)cccc4[C@@](C)(O)[C@H]3[C@H](O)[C@@H]12 | 91.2%
COc1ccc(CN(CCN(C)C)c2ncccn2)cc1 | 102%
CC1(C)S[C@@H]2[C@H](NC(=O)COc3ccccc3)C(=O)N2[C@H]1C(=O)O | 100%
CN(C)/N=N/c1[nH]cnc1C(N)=O | 94.9%
CC[C@H]1OC(=O)[C@H](C)[C@@H](O[C@H]2C[C@@](C)(OC)[C@@H](O)[C@H](C)O2)[C@H](C)[C@@H](O[C@@H]2O[C@H](C)C[C@H](N(C)C)[C@H]2O)[C@](C)(OC)C[C@@H](C)C(=O)[C@H](C)[C@@H](O)[C@]1(C)O | 103%
CC(=O)Nc1ccccc1 | 97.2%
CCCCC(=O)N(Cc1ccc(-c2ccccc2-c2nnn[nH]2)cc1)[C@H](C(=O)O)C(C)C | 99.4%
CN(C)[C@@H]1C(O)=C(C(N)=O)C(=O)[C@@]2(O)C(O)=C3C(=O)c4c(O)ccc(Cl)c4[C@@](C)(O)[C@H]3C[C@@H]12 | 90.3%
CN1CCN(C(c2ccccc2)c2ccc(Cl)cc2)CC1 (stereo not shown) | 99.4%
CCCCCCCCCCOc1cc2c(O)c(C(=O)OCC)cnc2cc1OCC | 93.8%
CC(COc1ccccc1)NC(C)C(O)c1ccc(O)cc1 (stereo not shown) | 98.5%
CC1(C)O[C@@H]2C[C@H]3[C@@H]4C[C@H](F)C5=CC(=O)C=C[C@]5(C)[C@@]4(F)[C@@H](O)C[C@]3(C)[C@]2(C(=O)CO)O1 | 98.2%
OCCN(CCO)c1nc(N2CCCCC2)c2nc(N(CCO)CCO)nc(N3CCCCC3)c2n1 | 95.8%

Sample 3
Target: Protein kinase C epsilon type (PRKCE, Homo sapiens, UniProt Q02156)
Read-out: enzyme activity
Action: inhibitor
Concentration: 0.5 µM
Reference: control
Target sequence (Q02156 1-737): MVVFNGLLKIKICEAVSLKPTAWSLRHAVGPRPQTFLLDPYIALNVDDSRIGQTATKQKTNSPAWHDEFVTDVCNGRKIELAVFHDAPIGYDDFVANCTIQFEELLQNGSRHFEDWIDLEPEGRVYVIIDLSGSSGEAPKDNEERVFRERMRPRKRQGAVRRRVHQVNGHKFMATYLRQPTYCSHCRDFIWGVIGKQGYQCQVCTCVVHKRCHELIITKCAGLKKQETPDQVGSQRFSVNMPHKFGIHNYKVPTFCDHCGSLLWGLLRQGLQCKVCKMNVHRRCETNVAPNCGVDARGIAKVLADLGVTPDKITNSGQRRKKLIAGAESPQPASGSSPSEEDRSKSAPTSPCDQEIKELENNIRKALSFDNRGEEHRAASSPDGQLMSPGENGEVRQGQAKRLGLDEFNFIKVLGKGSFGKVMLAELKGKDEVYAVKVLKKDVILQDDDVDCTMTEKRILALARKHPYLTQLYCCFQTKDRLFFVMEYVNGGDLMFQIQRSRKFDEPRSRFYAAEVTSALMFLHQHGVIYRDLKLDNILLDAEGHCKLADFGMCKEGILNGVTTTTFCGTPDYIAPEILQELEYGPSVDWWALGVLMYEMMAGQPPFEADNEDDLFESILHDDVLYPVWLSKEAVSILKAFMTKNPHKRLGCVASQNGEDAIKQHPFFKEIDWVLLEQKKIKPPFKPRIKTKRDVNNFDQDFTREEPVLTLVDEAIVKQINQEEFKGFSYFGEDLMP
Compound | remaining activity [%]
C[C@@H](N)[C@H]1CC[C@H](C(=O)Nc2ccncc2)CC1 | 40.2
FC(F)(F)c1ccc(/C=C/c2nc(COc3ccc(CCCCn4ccnn4)cc3)co2)cc1 | 101
NC(=O)c1cccc(-c2cc(Nc3ccc(OC(F)(F)F)cc3)ncn2)c1 | 111
Clc1ccc(Nc2nnc(Cc3ccncc3)c3ccccc23)cc1 | 100
COc1cc2c(Nc3ccc(Br)cc3F)ncnc2cc1OCC1CCN(C)CC1 | 100
O=Nc1c(-c2c(O)[nH]c3ccccc23)[nH]c2ccccc12 | 96.5
c1cc(-c2cnn3cc(-c4ccc(OCCN5CCCCC5)cc4)cnc23)ccn1 | 106
Nc1nc(Nc2ccc(S(N)(=O)=O)cc2)nn1C(=S)Nc1c(F)cccc1F | 11.5
CC(C)N(CCC(=O)c1ccc2ccccc2c1)Cc1ccccc1 | 95
O=C(c1ccccc1)c1ccc(N2CCOCC2)cc1O | 92.3
CCCCc1c(-c2ccc(O)cc2)[nH]c2nccnc12 | 107
NC(=O)c1ccc(-c2nc(-c3ccc4c(c3)OCCO4)c(-c3ccccn3)[nH]2)cc1 | 93.1
CNc1cc2c(Nc3cccc(Br)c3)ncnc2cn1 | 99.8
CCN(CC)CCCCN1c2ccccc2Oc2ccc(Cl)cc21 | 109
N#CC(c1ccnc(NCCc2cccnc2)n1)c1nc2ccccc2s1 (stereo not shown) | 92.1
N#C/C(=C(/N)SC1C=CC=CC1)c1cccc(C(O)c2ccncc2)c1 (stereo not shown) | 104
CC(C)(C)c1nc2c3cc[nH]c(=O)c3c3cc(F)ccc3c2[nH]1 | 51.4
CC(C)n1cnc2c(Nc3cccc(Cl)c3)nc(NCCO)nc21 | 93.6
O=C1NC(=O)/C(=C/c2ccc3c(c2)OC(F)(F)O3)S1 | 103
O=C(O)/C=C/c1cc(Br)c(Br)c(Br)c1Br | 88.6
COc1cc2c(N3CCN(C(=O)Nc4ccc(OC(C)C)cc4)CC3)ncnc2cc1OCCCN1CCCCC1 | 104

Sample 4
Structure (SMILES): CN1CCN(C(=O)c2ccc(NC(=O)Nc3ccc(N(C)c4ccnc(Nc5ccc(CS(C)(=O)=O)cc5)n4)cc3)cc2)CC1
Technique: competitive binding panel
Concentration: 1 µM
Reference: vehicle
target | remaining binding [%]
PRKCD (Homo sapiens, UniProt Q05655) | 100
FES (Homo sapiens, UniProt P07332) | 67
SYK (Homo sapiens, UniProt P43405) | 34
Myosin-IIIb (MYO3B, Homo sapiens, UniProt Q8WXR4) | 23
JAK1 (Homo sapiens, UniProt P23458) | 13
PIKFYVE (Homo sapiens, UniProt Q9Y2I7) | 100
Aurora kinase C (AURKC, Homo sapiens, UniProt Q9UQB9) | 0.2
LIM domain kinase 1 (LIMK1, Homo sapiens, UniProt P53667) | 61
TAOK3 (Homo sapiens, UniProt Q9H2K8) | 83
ROCK1 (Homo sapiens, UniProt Q13464) | 17
ACVRL1 (Homo sapiens, UniProt P37023) | 79
PKN1 (Homo sapiens, UniProt Q16512) | 70
